Measurements from different studies.
Each numbered part is a random draw from the data of one study; scales do not carry over between parts. Several values in a cell are separate wells, animals, samples, runs or records.

Series 1
Compound: C=CC(=O)N1CCN(c2nc(OC[C@@H]3CCCN3C)nc3c2CCN(c2cccc4cccc(C)c24)C3)C[C@@H]1CC#N
Observed: binding
Action: competitor
Method: NanoBRET
Cells: HEK293
KRAS Q61L: GTPase KRas (KRAS, Homo sapiens, UniProt P01116, Q61L)
HRAS: GTPase HRas (HRAS, Homo sapiens, UniProt P01112)
KRAS G12D: GTPase KRas (KRAS, Homo sapiens, UniProt P01116, G12D)
It gave 97.2% and 99% and 94.5% for normalized BRET (KRAS Q61L; 3.05 nM).
It gave 89.6% and 90.7% and 91.2% for normalized BRET (KRAS Q61L; 82.2 nM).
HRAS; 2.22 µM — normalized BRET: 115% and 87.3%.
For KRAS G12D; 10 µM: normalized BRET read 44.4%.
KRAS G12D; 1.02 nM — normalized BRET: 99.4% and 98.2%.
It gave 87.1% and 103% for normalized BRET (HRAS; 82.2 nM).
The normalized BRET was 102% and 101% and 94.7% (KRAS Q61L; 1.02 nM).

Series 2
SMILES: Cn1cc(-c2cccc(CN3CCC4(CC3)COc3c4ccc4c3CN([C@H]3CCC(=O)NC3=O)C4=O)c2)cn1
Time: 5 h
For human plasma: “plasma protein binding” read 91.5%.
It gave 94.3% for “plasma protein binding” (monkey plasma).
It gave 93.4% for “plasma protein binding” (mouse plasma).
The “plasma protein binding” was 91.2% (rat plasma).

Series 3
Target: Cyclin-dependent kinase 12, with cyclin K (CDK12, Homo sapiens, UniProt Q9NYV4)
Sequence of UniProt Q9NYV4 (whole entry, looked up): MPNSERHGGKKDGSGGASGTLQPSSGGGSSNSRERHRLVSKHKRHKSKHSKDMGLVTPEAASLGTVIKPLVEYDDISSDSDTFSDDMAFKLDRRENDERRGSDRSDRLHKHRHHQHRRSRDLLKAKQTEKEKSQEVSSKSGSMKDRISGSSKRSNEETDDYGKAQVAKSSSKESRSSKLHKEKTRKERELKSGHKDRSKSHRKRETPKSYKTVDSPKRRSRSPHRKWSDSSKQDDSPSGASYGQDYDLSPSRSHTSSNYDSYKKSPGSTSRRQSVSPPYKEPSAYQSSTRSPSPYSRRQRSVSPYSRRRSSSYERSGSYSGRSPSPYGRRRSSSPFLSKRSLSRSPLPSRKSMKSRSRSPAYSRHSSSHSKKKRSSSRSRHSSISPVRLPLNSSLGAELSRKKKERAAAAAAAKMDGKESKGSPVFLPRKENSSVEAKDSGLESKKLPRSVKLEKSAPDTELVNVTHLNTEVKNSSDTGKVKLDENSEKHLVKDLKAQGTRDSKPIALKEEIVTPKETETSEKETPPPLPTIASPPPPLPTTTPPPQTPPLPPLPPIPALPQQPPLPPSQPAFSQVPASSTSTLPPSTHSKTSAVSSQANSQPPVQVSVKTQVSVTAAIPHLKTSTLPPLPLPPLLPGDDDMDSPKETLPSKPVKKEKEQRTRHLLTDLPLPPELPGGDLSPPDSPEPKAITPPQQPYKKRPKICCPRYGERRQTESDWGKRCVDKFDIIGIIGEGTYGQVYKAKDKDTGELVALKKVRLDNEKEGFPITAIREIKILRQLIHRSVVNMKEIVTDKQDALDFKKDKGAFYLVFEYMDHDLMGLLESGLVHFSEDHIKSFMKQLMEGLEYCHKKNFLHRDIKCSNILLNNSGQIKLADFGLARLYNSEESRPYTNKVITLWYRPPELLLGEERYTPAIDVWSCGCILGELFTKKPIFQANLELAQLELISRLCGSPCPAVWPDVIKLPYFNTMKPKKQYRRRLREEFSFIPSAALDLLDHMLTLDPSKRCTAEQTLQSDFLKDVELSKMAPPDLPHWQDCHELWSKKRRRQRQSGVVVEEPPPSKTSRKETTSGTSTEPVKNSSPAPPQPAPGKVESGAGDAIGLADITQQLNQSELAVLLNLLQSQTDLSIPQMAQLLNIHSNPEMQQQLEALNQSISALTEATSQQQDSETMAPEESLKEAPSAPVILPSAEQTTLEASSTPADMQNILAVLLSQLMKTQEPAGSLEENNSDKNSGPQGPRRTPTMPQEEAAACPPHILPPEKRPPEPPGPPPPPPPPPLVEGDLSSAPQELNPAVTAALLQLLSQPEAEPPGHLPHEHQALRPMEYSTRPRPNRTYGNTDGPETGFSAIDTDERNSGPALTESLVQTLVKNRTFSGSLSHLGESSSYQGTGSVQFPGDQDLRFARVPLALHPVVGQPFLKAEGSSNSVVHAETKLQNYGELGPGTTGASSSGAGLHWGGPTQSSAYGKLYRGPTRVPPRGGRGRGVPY
Observed: kinase activity
Action: inhibitor
Method: ADP-Glo
Tested at: 0.0741 µM
CCn1cnc2c(NCc3nc4cc(Cl)c(Cl)cc4[nH]3)nc(N3CCN(C(=O)[C@H](C)NC(C)=O)CC3)nc21 has an inhibition of 11%.
CC(=O)N1CCN(c2nc(NCc3nc4cc(Cl)c(Cl)cc4[nH]3)c3ncn(C)c3n2)CC1 gave an inhibition of 5.5%.
With CCn1cnc2c(NCc3nc4cc(Cl)c(Cl)cc4[nH]3)nc(N3CCN(C(=O)CNC(C)=O)CC3)nc21 the inhibition was 41%.
For Cn1cc(-n2cnc3c(NCc4nc5cc(Cl)c(Cl)cc5[nH]4)nc(N4CCNCC4)nc32)cn1, the inhibition was 11.6%.
With CCn1cnc2c(NCc3nc4cc(Cl)c(Cl)cc4[nH]3)nc(N3CCN(c4ccccn4)CC3)nc21 the inhibition was 25.7%.
For CCn1cnc2c(NCc3nc4cc(Cl)c(Cl)cc4[nH]3)nc(N3CCN(Cc4ccncc4)CC3)nc21, the inhibition was -2.3%.
The inhibition of CCn1cnc2c(NCc3nc4cc(Cl)c(Cl)cc4[nH]3)nc(N3CCn4ncnc4C3)nc21 is reported as 65.1%.
The inhibition of CCn1cnc2c(NCc3nc4cc(Cl)c(Cl)cc4[nH]3)nc(N3CCC(NC(C)=O)CC3)nc21 is reported as 28%.

Series 4
Compound: C[C@@H]1CN(c2ccc(-c3cc(C(=O)NCCOCCOCCOCCOCCNC(=O)Cn4cc(-c5[nH]cc(C(=O)N[C@@H](CC(N)=O)c6ccc(F)c(Cl)c6)c5-c5ccc(Cl)cc5F)cn4)ccc3F)cc2NC(=O)c2c[nH]c(=O)cc2C(F)(F)F)C[C@H](C)N1C
Observed: thermal unfolding
Method: differential scanning fluorimetry
Tested at: 5.5 µM
Direction: higher = more unfolded
WDR5: WD repeat-containing protein 5 (WDR5, Homo sapiens, UniProt P61964)
DCAF1: DDB1- and CUL4-associated factor 1 (DCAF1, Homo sapiens, UniProt Q9Y4B6)
Sequence of UniProt Q9Y4B6 (whole entry, looked up): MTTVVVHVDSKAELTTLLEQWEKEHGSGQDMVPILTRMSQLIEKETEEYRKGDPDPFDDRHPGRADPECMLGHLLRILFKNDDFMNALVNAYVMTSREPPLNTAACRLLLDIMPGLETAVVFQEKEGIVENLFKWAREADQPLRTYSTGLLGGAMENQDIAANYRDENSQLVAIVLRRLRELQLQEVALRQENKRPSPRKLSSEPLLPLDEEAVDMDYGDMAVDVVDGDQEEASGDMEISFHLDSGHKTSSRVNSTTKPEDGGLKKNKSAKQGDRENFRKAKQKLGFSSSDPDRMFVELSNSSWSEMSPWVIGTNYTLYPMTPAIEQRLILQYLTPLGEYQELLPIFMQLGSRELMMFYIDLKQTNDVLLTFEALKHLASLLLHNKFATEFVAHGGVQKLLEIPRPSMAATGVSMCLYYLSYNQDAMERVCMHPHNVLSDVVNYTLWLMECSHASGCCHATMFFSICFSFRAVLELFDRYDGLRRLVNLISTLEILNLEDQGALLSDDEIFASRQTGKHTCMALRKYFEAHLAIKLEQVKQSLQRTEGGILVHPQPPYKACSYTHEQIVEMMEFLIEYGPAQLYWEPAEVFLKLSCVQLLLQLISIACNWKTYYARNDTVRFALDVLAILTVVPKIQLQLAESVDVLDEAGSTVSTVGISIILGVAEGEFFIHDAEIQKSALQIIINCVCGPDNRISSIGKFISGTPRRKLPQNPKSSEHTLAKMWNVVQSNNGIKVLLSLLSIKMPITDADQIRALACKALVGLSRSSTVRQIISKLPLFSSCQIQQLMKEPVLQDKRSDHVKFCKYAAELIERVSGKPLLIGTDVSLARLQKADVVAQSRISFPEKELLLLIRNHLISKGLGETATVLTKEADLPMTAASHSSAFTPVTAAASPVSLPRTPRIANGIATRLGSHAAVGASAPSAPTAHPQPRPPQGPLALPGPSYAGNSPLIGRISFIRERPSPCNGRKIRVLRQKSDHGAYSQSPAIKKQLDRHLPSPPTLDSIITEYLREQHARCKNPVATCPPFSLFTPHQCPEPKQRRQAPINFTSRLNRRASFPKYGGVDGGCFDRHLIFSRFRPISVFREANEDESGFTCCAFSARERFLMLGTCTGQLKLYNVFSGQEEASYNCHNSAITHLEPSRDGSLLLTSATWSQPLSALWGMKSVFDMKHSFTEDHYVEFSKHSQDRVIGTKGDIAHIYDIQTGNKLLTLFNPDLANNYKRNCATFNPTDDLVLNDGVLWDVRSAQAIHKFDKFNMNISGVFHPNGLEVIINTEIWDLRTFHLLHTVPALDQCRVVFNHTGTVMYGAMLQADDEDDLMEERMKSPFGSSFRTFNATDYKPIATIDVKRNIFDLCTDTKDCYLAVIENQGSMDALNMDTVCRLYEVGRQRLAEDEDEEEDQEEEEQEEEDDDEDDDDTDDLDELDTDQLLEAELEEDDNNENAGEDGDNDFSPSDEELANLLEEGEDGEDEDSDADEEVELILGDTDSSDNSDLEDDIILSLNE
It gave 39600 a.u. for “SYPRO Orange fluorescence” (WDR5; 93.61 °C).
DCAF1; 31.4 °C — “SYPRO Orange fluorescence”: 8270 a.u.
For WDR5; 83.21 °C: “SYPRO Orange fluorescence” read 34200 a.u.
The “SYPRO Orange fluorescence” was 40400 a.u. (DCAF1; 84.41 °C).
For DCAF1; 26 °C: “SYPRO Orange fluorescence” read 7580 a.u.
For DCAF1; 62.01 °C: “SYPRO Orange fluorescence” read 47700 a.u.
It gave 13700 a.u. for “SYPRO Orange fluorescence” (DCAF1; 48.6 °C).
WDR5; 82.81 °C — “SYPRO Orange fluorescence”: 32800 a.u.

For quick reference, copied from above (series 1):
It gave 97.2% and 99% and 94.5% for normalized BRET (KRAS Q61L; 3.05 nM).
It gave 89.6% and 90.7% and 91.2% for normalized BRET (KRAS Q61L; 82.2 nM).
HRAS; 2.22 µM — normalized BRET: 115% and 87.3%.
